Published values collected from several papers.
Lines come from different studies, so protocols differ. Values joined by “and” are separate records of one study, mostly repeats; a detail may differ. Numbers after ± are the reported error. In brackets after ≈: the same amount, converted by molar mass.
BCHE: Cholinesterase (BCHE, Homo sapiens, UniProt P06276)
Chain of UniProt P06276 (whole entry, looked up): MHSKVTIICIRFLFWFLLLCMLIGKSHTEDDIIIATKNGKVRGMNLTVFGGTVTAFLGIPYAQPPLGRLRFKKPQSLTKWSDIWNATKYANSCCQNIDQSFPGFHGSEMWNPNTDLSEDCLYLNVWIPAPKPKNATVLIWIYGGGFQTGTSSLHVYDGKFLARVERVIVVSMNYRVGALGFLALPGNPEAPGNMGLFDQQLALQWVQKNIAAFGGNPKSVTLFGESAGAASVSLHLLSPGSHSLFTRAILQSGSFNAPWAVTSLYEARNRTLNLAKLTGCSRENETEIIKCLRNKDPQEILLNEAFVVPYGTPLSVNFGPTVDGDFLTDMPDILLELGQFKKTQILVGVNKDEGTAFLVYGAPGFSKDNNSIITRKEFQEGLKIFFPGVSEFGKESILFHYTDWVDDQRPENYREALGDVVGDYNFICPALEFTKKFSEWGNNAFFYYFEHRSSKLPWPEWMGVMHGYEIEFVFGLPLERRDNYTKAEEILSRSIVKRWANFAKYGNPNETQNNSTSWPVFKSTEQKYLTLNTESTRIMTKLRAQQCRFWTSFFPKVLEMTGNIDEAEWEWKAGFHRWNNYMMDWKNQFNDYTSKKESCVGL
Chain of UniProt P00742 (whole entry, looked up): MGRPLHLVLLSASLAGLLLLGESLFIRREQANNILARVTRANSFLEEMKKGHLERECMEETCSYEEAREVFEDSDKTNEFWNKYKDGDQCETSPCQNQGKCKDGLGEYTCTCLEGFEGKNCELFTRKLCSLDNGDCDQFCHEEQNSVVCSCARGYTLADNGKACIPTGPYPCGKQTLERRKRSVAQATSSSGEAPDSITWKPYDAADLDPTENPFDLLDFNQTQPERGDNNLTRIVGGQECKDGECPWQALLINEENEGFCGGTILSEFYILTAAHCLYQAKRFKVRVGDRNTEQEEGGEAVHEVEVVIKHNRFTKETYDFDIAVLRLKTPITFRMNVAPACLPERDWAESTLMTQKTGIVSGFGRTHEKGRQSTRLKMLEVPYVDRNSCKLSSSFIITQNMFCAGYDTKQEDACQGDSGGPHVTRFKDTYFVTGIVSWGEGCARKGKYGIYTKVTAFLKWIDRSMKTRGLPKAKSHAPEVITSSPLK
Chain of UniProt Q9H7Z7 (whole entry, looked up): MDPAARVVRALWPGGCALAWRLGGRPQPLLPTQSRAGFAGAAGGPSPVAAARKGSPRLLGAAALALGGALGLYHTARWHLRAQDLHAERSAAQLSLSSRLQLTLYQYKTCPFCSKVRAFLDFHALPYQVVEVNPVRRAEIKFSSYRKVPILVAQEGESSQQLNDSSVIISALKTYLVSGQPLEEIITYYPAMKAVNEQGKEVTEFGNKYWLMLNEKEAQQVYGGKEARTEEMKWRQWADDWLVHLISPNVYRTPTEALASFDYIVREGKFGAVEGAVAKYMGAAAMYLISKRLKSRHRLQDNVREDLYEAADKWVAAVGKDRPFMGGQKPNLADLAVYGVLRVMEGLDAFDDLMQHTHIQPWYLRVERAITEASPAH

| Compound | target or system | test | test system | setting | how to read | endpoint | result |
| --- | --- | --- | --- | --- | --- | --- | --- |
| COc1cc(CCC[P+](c2ccccc2)(c2ccccc2)c2ccccc2)c(OC)c2c1OCO2.[I-] | SNB-75 | SRB | – | – | – | LC50 | -4.66 log M |
| COc1cc(N[C@H](C(=O)c2c[nH]c3ccc(OC(F)(F)F)cc23)c2ccc(Cl)cc2OC)cc(S(C)(=O)=O)c1 | dengue virus 2 | viral infection, luciferase reporter virus | – | 0.003 nM, 48 h | – | inhibition | 2.1% |
| CCOc1cccc(=O)c2c(C)n(Cc3ccc(Cl)cc3)c(C)c12 | Plasmodium falciparum | parasite growth | Dd2 | – | – | EC50 | 493 ± 250 nM |
| CC(C)[C@@H]1NC(=O)[C@@H](CCCCN)NC(=O)[C@H](CCCN)NC(=O)[C@@H](CC(=O)O)NC(=O)[C@H](C)NC(=O)[C@H](Cc2c[nH]c3ccccc23)NC(=O)[C@@H](Cc2c[nH]c3ccccc23)NC1=O | Naegleria fowleri | – | – | trophozoites | – | IC90 | > 16 µg/mL |
| Cc1cc(Nc2ccc(C(C)(C)C)cc2)c2[nH]ncc2n1.Cl | Plasmodium falciparum | parasite growth, SYBR Green | – | 72 h | relative to: 3D7-E182D over 3D7 | EC50 ratio | 4.1 |
| O=C(NN=Cc1ccc(O)c(Br)c1)c1cccc(Br)c1 | Cryptococcus neoformans | – | – | with: tunicamycin | lower = more synergistic | FIC index | 1 |
| CS(=O)(=O)CCCn1c(Cn2c(=O)n(CC(F)(F)F)c3ccncc32)cc2cc(Cl)ccc21 | respiratory syncytial virus | RT-qPCR | hospitalized infants 1-24 months, nasal swab | oral, 1-9 mg/kg daily, day 3, all doses combined | relative to: placebo | LS mean difference vs placebo | -1.62 log10 copies/mL |
| CN1CCC[C@@H]1Cc1c[nH]c2ccc(CCS(=O)(=O)c3ccccc3)cc12 | BCHE | inhibitor | – | with Triton | – | IC50 | 16100 ± 9710 nM |
| CC(C)C[C@H](NC(=O)C[C@H](O)[C@H](CC(C)C)NC(=O)[C@H](Cc1c[nH]cn1)NC(=O)CNC(=O)[C@@H](NC(=O)[C@H](C)NC(=O)[C@H](Cc1c[nH]c2ccccc12)NC(=O)[C@H](CCC(N)=O)NC(=O)[C@@H](Cc1ccccc1)NC(=O)CCNC(=O)CCSc1nnc(NCCC(=O)NCCC(=O)NCCCC[C@H](NC(=O)N[C@@H](CCC(=O)O)C(=O)O)C(=O)O)c2c1CCC1C(CC2)C1COC(=O)NCCNC(=O)CC[C@H](C(=O)O)N1CCN(CC(=O)O)CCN(CC(=O)O)CC1)C(C)C)C(N)=O (stereo partly shown) [gallium-68 labelled] | – | – | athymic NMRI nude mouse, stomach | intravenous, 533 pmol, 2 h | – | tissue uptake | 0.11 %ID/g |
| CC[C@H](C)[C@H](NC(=O)[C@H](C)NC(=O)[C@H](CCCCN)NC(=O)[C@H](CC(C)C)NC(=O)[C@H](C)NC(=O)[C@@H](NC(=O)[C@H](Cc1c[nH]cn1)NC(=O)[C@H](CC(C)C)NC(=O)[C@@H](NC(=O)[C@@H](NC(=O)[C@H](CCCCN)NC(=O)[C@H](C)NC(=O)[C@H](C)NC(=O)[C@H](CO)NC(=O)[C@H](CCCCN)NC(=O)[C@H](Cc1ccccc1)NC(=O)[C@@H](NC(=O)[C@H](CCCCN)NC(=O)[C@H](CC(C)C)NC(=O)[C@H](Cc1ccccc1)NC(=O)[C@H](CO)NC(=O)[C@H](CCCCN)NC(=O)[C@H](Cc1c[nH]c2ccccc12)NC(=O)[C@H](CCCCN)NC(C)=O)[C@@H](C)O)[C@@H](C)O)C(C)C)[C@@H](C)O)C(=O)N[C@@H](CO)C(=O)N[C@@H](CO)C(N)=O | Streptococcus pyogenes | – | ATCC 13813 | 1 strain | – | MIC geometric mean | 16 µg/mL (≈ 5.45 µM) |
| CC(C)[C@@H]1NC(=O)[C@@H](CCCCN)NC(=O)[C@H](CCCCN)NC(=O)[C@@H](CCCN)NC(=O)[C@H](C)NC(=O)[C@H](Cc2c[nH]c3ccccc23)NC(=O)[C@@H](Cc2ccccc2)NC1=O | Naegleria fowleri | – | – | trophozoites | – | IC90 | > 16 µg/mL |
| Cc1cc(OC(C)C(=O)N2CCc3ccccc32)ccc1Cl (stereo not shown) | Plasmodium falciparum | parasite growth, SYBR Green | 3D7 wild type | 72 h | – | EC50 | 3190 ± 1600 nM |
| Cn1c(=O)ccc2ccc(F)c(CCNC[C@H]3CN(c4cnc5c(n4)NC(=O)CO5)C(=O)O3)c21 | Clostridioides difficile | – | – | – | – | MIC50 | < 0.015 µg/mL |
| COc1c(CCC[P+](c2ccccc2)(c2ccccc2)c2ccccc2)cc2c(c1OC)OCO2.[I-] | SK-OV-3 | SRB | – | – | – | TGI | -5.07 log M |
| NCCCC[C@@H]1NC(=O)[C@@H](CCCN)NC(=O)[C@@H](Cc2ccccc2)NC(=O)[C@H](Cc2ccccc2)NC(=O)CNC1=O | Naegleria fowleri | – | – | trophozoites | – | IC50 | > 16 µg/mL |
| CNC(=O)c1cc(Cl)cc(C)c1NC(=O)c1cc(Br)nn1-c1ncccc1Cl | Spodoptera litura | – | Brassica oleracea field plot | 25 ppm, 72 h, 5% water-dispersible granule | – | larval viability | 25.7% and 22.9% and 28.1% |
| C[C@H]1CN(c2n[nH]c3nc(N[C@H]4CC[C@H](NS(=O)(=O)CCC(F)(F)F)CC4)ncc23)CCO1 | Prostaglandin E synthase 2 (Homo sapiens, UniProt Q9H7Z7) | biochemical | – | – | – | IC50 | ≥ 20000 nM |
| C[C@@H](O)[C@@H]1NC(=O)[C@H](Cc2ccccc2)NC(=O)[C@@H](Cc2ccccc2)NC(=O)[C@H]([C@@H](C)O)NC(=O)[C@@H](CCCCN)NC(=O)[C@H](CC(=O)O)NC1=O | Acanthamoeba castellanii | – | – | trophozoites | – | IC50 | 14.2 µg/mL |
| CC[N+](CC)(CC)CCOc1ccc(/C=C/c2ccccc2)cc1 | Plasmodium falciparum | – | HB3 | – | – | IC50 | 794 nM |
| Cc1ccccc1C(=O)NN=Cc1ccc(O)c(Br)c1 | Cryptococcus neoformans | – | – | concentration not given, with: tunicamycin | – | MIC in combination | 0.25 µg/mL |

| Compound | target or system | test | test system | setting | how to read | endpoint | result |
| --- | --- | --- | --- | --- | --- | --- | --- |
| CC12CC3CC(C)(C1)CC(N)(C3)C2 | Plasmodium falciparum | – | GB4 | – | – | IC50 | 1000 nM |
| C[C@@H](O)[C@@H]1NC(=O)[C@H](Cc2ccccc2)NC(=O)[C@@H](Cc2ccccc2)NC(=O)[C@H]([C@@H](C)O)NC(=O)[C@@H](CCCN)NC(=O)[C@H](CCCN)NC(=O)[C@@H](CCCCN)NC1=O | Naegleria fowleri | – | – | trophozoites | – | IC50 | > 16 µg/mL |
| C[C@@H](N[C@H]1CCCC[C@@H]1NC(=O)c1ccc(Cl)cc1)c1cccc2ccccc12 | BCHE | inhibitor | – | with Triton | – | IC50 | 17400 ± 3260 nM |
| CCCC1O[C@@H]2C[C@H]3[C@@H]4CCC5=CC(=O)C=C[C@]5(C)[C@H]4[C@@H](O)C[C@]3(C)[C@]2(C(=O)CO)O1 (stereo partly shown) | Plasmodium falciparum | – | GB4 | – | – | IC50 | 3160 nM |
| Cc1ccc(N2CCc3c(-c4cc5cccnc5nc4C)cc(C)nc32)c(Cl)c1 | Plasmodium falciparum | parasite growth | Dd2 | – | – | EC50 | 381 ± 35 nM |
| CC[C@H](C)[C@@H]1NC(=O)[C@@H]2CCCN2C(=O)[C@H](CC(C)C)NC(=O)[C@H](CC(C)C)NC(=O)CNC(=O)[C@@H](NC(=O)[C@@H](NC(=O)[C@H](CC(=O)O)NC(=O)CNC(=O)[C@@H](NC(=O)[C@H](C)NC(=O)CNC(=O)[C@H](CCCCN)NC(=O)[C@H](CC(C)C)NC(=O)[C@H](CC(C)C)NC(=O)[C@H](CCCCN)NC(=O)CNC(=O)[C@@H](NC(=O)[C@@H](N)CC(C)C)C(C)C)C(C)C)C(C)C)CSSC[C@@H](C(=O)O)NC1=O | – | RNA-seq, refers to: Runx3 | mouse, traumatic brain injury model, frontal cortex and hippocampus | dose not given | relative to: TBI alone | log2 fold change | -2.68 |
| COc1cc(Nc2ncc(F)c(Nc3ccc4c(n3)NC(=O)C(C)(C)O4)n2)cc(OC)c1OC | Coagulation factor X (F10, Homo sapiens, UniProt P00742) | – | – | – | – | IC50 | > 10000 nM |
| NCCCC[C@@H]1NC(=O)[C@@H](CCCCN)NC(=O)[C@H](CO)NC(=O)[C@H](Cc2c[nH]c3ccccc23)NC(=O)[C@@H](Cc2c[nH]c3ccccc23)NC(=O)[C@H](Cc2ccccc2)NC(=O)[C@@H](CCCCN)NC1=O | Acanthamoeba castellanii | – | – | trophozoites | – | IC90 | > 16 µg/mL |
| CCc1nc2nc(C)cc(Nc3ccc(F)c(Cl)c3)n2n1 | Plasmodium falciparum | parasite growth, SYBR Green | 3D7 wild type | 72 h | – | EC50 | 514 ± 150 nM |
| C[C@@H]1CC[C@H]2[C@@H](C)C(=O)O[C@@H]3O[C@@]4(C)CC[C@@H]1[C@]32OO4 | Plasmodium falciparum | cell growth | D10 | – | – | IC50 | 19 nM |
| COc1ccccc1Cn1ccnc1SCC(=O)Nc1cccc(C(F)(F)F)c1 | Plasmodium falciparum | parasite growth, SYBR Green | 3D7 DHODH E182D | 72 h | – | EC50 | 5230 ± 1200 nM |
| CC(C)[C@H]1NC(=O)[C@H](CCCNC(=N)N)NC(=O)CNC(=O)[C@@H](Cc2c[nH]c3ccccc23)NC(=O)[C@H](CCCCN)NC(=O)[C@@H](CCCN)NC1=O | Naegleria fowleri | – | – | trophozoites | – | IC90 | > 16 µg/mL |
| COC(=O)[C@@H]1[C@H]2C[C@H]3c4[nH]c5ccccc5c4CCN3C[C@@H]2CC[C@@H]1O | Plasmodium falciparum | – | 3D7 | – | – | IC50 | 6310 nM |
| CCCn1c(O)nnc1SCC(=O)Nc1cc(C(F)(F)F)ccc1Cl | Plasmodium falciparum | parasite growth | – | – | – | EC50 | 590 ± 140 nM |
| CN(C)CCCN1c2ccccc2CCc2ccccc21 | Plasmodium falciparum | – | D10 | – | – | IC50 | 15800 nM |
| Cc1cc(Cl)cc(S(C)(=O)=O)c1NC(=O)c1cc(Br)nn1-c1ncccc1Cl | Spodoptera litura | leaf-dip | third instar larvae | 12.5 ppm, 96 h | – | mortality | 100% |
| COC(=O)[C@H]1[C@H]2C[C@@H]3c4[nH]c5cc(OC)ccc5c4CCN3C[C@H]2C[C@@H](OC(=O)c2cc(OC)c(OC)c(OC)c2)[C@@H]1OC | Plasmodium falciparum | – | 7G8 | – | – | IC50 | 316 nM |
| Cc1cc(NC(=O)c2cc(S(=O)(=O)N3CCCCC3)ccc2C)no1 | Plasmodium falciparum | parasite growth, SYBR Green | 3D7 wild type | 72 h | – | EC50 | 533 ± 160 nM |
| CC(C)[C@@H]1NC(=O)[C@@H](CCCNC(=N)N)NC(=O)[C@H]([C@@H](C)O)NC(=O)[C@@H](CCCNC(=N)N)NC(=O)[C@H](Cc2ccccc2)NC(=O)[C@@H](Cc2ccccc2)NC1=O | Acanthamoeba castellanii | – | – | trophozoites | – | IC90 | > 16 µg/mL |
| CNCC[C@@H](Oc1ccccc1C)c1ccccc1 | Plasmodium falciparum | – | Dd2 | – | – | IC50 | 5010 nM |

Repeated from above:
| Compound | target or system | test | test system | setting | how to read | endpoint | result |
| --- | --- | --- | --- | --- | --- | --- | --- |
| CCOc1cccc(=O)c2c(C)n(Cc3ccc(Cl)cc3)c(C)c12 | Plasmodium falciparum | parasite growth | Dd2 | – | – | EC50 | 493 ± 250 nM |
| CC(C)C[C@H](NC(=O)C[C@H](O)[C@H](CC(C)C)NC(=O)[C@H](Cc1c[nH]cn1)NC(=O)CNC(=O)[C@@H](NC(=O)[C@H](C)NC(=O)[C@H](Cc1c[nH]c2ccccc12)NC(=O)[C@H](CCC(N)=O)NC(=O)[C@@H](Cc1ccccc1)NC(=O)CCNC(=O)CCSc1nnc(NCCC(=O)NCCC(=O)NCCCC[C@H](NC(=O)N[C@@H](CCC(=O)O)C(=O)O)C(=O)O)c2c1CCC1C(CC2)C1COC(=O)NCCNC(=O)CC[C@H](C(=O)O)N1CCN(CC(=O)O)CCN(CC(=O)O)CC1)C(C)C)C(N)=O (stereo partly shown) [gallium-68 labelled] | – | – | athymic NMRI nude mouse, stomach | intravenous, 533 pmol, 2 h | – | tissue uptake | 0.11 %ID/g |
| C[C@@H](O)[C@@H]1NC(=O)[C@H](Cc2ccccc2)NC(=O)[C@@H](Cc2ccccc2)NC(=O)[C@H]([C@@H](C)O)NC(=O)[C@@H](CCCCN)NC(=O)[C@H](CC(=O)O)NC1=O | Acanthamoeba castellanii | – | – | trophozoites | – | IC50 | 14.2 µg/mL |
